Experimental data pooled from the literature.
A part holds a random share of what one study measured. Changes are numbered by the printed parent chain.

Set 1 — technique: universal PBM; molecule type: double-stranded DNA, one strand shown; sample: in vitro; concentration: not given; reading: higher = stronger binding
Target: Sal-like protein 4, full length isoform B (SALL4, Homo sapiens, UniProt Q9UJQ4-2, residues 1-616)
Setting: 8-mer, flanks averaged, mean of replicates
Oligonucleotide	E-score
AGGACAAA	0.175
GAGGTTAA	0.106
CGGCGAGC	-0.315
TAATGATA	0.333
ATGCTCAA	0.094
CCTAGTCG	-0.0291
ATTGCAAG	0.158
CACAAAAG	-0.114
ATTGGATC	0.122
AAGCTTCA	-0.0526
CTGAACAC	-0.0625
CATCTGAA	0.117
CAAATCTC	-0.0472
ATGCTTGG	0.124
CGAAAGGA	0.106
GCCGTACC	-0.255
ATTCAGGG	-0.0818
GTCCTTCA	0.0497
AGTATACG	0.229
GCGGACCA	-0.266
CGACGTAC	-0.0905
CCGGGCCG	-0.431
CGTTCCCA	0.00758
AATCAAAT	0.296
AGGTTAGG	-0.094

Set 2 — target: ATF2, bZIP domain (human); technique: DHFR protein complementation; sample: yeast; reference: wild-type JUN-FOS pair; reading: higher = stronger binding
Setting: single substitutions, most at no-binding floor
Parent: JUN, bZIP domain (human); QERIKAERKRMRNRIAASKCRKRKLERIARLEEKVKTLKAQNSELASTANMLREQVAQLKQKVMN; partner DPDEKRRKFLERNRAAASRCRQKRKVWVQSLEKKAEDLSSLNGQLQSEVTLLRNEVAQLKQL
Change	binding fitness [natural log]
L38N	-1.44
E54C	-1.41
A49V	-1.39
V56S	-1.46
S47G	-1.36
V35S	-1.5
S43T	-1.3
R53F	-1.6
T37V	-1.4
A40H	-1.45
L38V	-1.49

Set 3 — technique: DHFR PCA, deep sequencing; sample: yeast; added: (+)-ABA 4.8 µM; reference: wild-type fitted maximum; reading: higher = stronger binding
Target: ABI1, truncated, D143A, DHFR fusion (Arabidopsis thaliana)
Setting: methotrexate growth selection, single substitutions
Parent: PYL1, truncated, DHFR fusion (Arabidopsis thaliana); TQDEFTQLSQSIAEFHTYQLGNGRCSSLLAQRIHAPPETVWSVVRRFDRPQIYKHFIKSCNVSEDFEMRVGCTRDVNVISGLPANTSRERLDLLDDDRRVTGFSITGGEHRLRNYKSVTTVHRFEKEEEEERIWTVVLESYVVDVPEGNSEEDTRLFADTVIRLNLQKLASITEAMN
Change	relative binding score
S117Q	11.9%
Y18F	27.6%
R90D	-3.23%
E67D	70.4%
R155C	45.8%
E131N	88.4%
W41V	-2.47%
T119G	-6.81%
V137L	2.42%
G81D	-5.63%
T106N	12.2%
H110W	45.3%
E152C	45.6%
V137M	-4.57%
R69Y	37.3%
Q31F	-3.58%
D65K	65.4%
F47K	-4.14%
T160N	31.2%

Set 4 — technique: RNA Bind-n-Seq; molecule type: RNA; sample: in vitro; concentration: 365 nM; reference: no-protein control; reading: higher = stronger binding
Target: RNA binding protein fox-1 homolog 2, RRM domain, GST-SBP tag (RBFOX2, Homo sapiens, UniProt O43251-10, residues 100-194)
Setting: natural RNA segment, single round, ends assumed
Residues (chain): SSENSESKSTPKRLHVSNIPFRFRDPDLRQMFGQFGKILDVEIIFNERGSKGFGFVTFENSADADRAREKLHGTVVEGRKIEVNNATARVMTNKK
Oligonucleotide	RBNS enrichment (R)
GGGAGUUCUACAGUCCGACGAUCGGAAGCAGGUGUGAUUACUUUUUUGCUCGUAGAUAUUGUCCUAAGUUGGAAUUCUCCCACUGCCCUAAAACUUUCCCUAGUAGUCCUUUAAACUCCCCCCUCCCUUUUUGUGGAAUUCUCGGGUGCCAA	1.28
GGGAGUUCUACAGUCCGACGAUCAGACAGAAAUGGGUUGGGUAGUUGGGCUCCCAACCUCGGAUGGUGACCGCAACAUCCCGUGUGGGCGGCCGGCCGCUCCUGCAGCCCGACUCUCCUGCCAGUGUCUUUCAUGGAAUUCUCGGGUGCCAA	0.289
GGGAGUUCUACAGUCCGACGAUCGGGCUGCUAUGUGGUUCAGUUAAUCAGUGUGCCAAGAUUCUAAUAAAGUUGACCUUGGGUUCUGUGACACUAAGGAGCAAUCCUUACAAGGGAGGAACAGCUUCUAGCCAUGGAAUUCUCGGGUGCCAA	0.286
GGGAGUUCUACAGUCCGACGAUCCGGCUCCAAGCAUCCCUGGUUACCUGUUCAGCCUGCAAGGCCGAUGUAUAGUGUACCUCAAUUCACACGACAGCGACAGCCAUGCUCCUGCCGUACAUGGACAUCUGUUCUGGAAUUCUCGGGUGCCAA	3.32
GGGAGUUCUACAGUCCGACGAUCGCCACAGCAUCUCACACCCCAGAGGCCUGGAGCAGAGGGAGAUUGGCUGAACUUGAUAGCAGACCUGCUCGGGUCCCUGCCUCCCACUCUGGCCUCUGCCUUUCUCCCUCUGGAAUUCUCGGGUGCCAA	0.622
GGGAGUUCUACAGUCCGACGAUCAGUAUUUUCAGACUGAAGAAAACUUUGAAAAGUCAGGAGCUAAGCUGCUCGGAGCUCAGUGCCGCAGCAUGGCUGUGGUGGACGCGGGAAACAACGGGAAAGUUCUUGACUGGAAUUCUCGGGUGCCAA	0.241
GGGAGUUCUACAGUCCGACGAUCAUGCAAUGGUGUUACACUGGAGCCCGCUGCAGGCCAGCUCUGCUGUUCACUGGCCCUACCCGAGACUGGUGAAACUGGAAGUCUUCACACUGGAGUUGCUGUUCCAGCUGUGGAAUUCUCGGGUGCCAA	0.309
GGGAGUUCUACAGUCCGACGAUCCUUAAACCAGGUGAAAGAGCAAAGUUCAAGUGCCUACUUAUGUGUCAUUCGCUCAUGUAAGAGUUUUUAAGAGAGGGCUGAUUAUCACAGCCCUCUUUUCUCCUGAAUUUUGGAAUUCUCGGGUGCCAA	0.241
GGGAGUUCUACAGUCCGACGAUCGUUUUCUUACCAAGCAUCCCUGACCUCCUGGAGACACCACCUGCUUUCCGGGCGGCACUGUGAUGGGAGCUGGUGGCGACUGAGUCCUUCUGUACGUGCAACUGGGAAACUGGAAUUCUCGGGUGCCAA	1.57
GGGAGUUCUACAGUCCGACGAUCUGUGGGUGGCAUGAUUGUACCCUCCUGGCUCUGUAUUUUCUCACUCCUCUGUCCUUCUAUAACUAGGUUCCUGUUCUUACACACCUGUCCACCGAAUGUCACUCACUGAGUGGAAUUCUCGGGUGCCAA	1.35
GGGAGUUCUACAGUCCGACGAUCCAGAAACUGACAGGAAUCAAUCAAAACAAUCGAAUUUUGAAUUGAGUAAAGUGCAAUUUCAUUGGAUAGCUAAAUAUCUUUGUAAGAUAGAGAUUGUUGAAAAUUCUAUUUGGAAUUCUCGGGUGCCAA	0.362
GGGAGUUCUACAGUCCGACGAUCGAGGACCAAUUUCUCAAGUCUCAGGGUUAUCAUAAAACCUUACUAACUUUAUCUUUCAUUUUUUAAAUCUCCAUUAUCCACCAAAUCUGAGCACCAAUCCCAGGUUUGUAUGGAAUUCUCGGGUGCCAA	1.14

Set 5 — target: CCNB3, cyclin fold, Cln2 fusion (human); technique: yeast growth competition, sequencing; sample: yeast; setting: strong parent motif; reference: not given; reading: higher = stronger binding
Parent: SCAPER docking peptide (human); SNARRSLNFGGST; partner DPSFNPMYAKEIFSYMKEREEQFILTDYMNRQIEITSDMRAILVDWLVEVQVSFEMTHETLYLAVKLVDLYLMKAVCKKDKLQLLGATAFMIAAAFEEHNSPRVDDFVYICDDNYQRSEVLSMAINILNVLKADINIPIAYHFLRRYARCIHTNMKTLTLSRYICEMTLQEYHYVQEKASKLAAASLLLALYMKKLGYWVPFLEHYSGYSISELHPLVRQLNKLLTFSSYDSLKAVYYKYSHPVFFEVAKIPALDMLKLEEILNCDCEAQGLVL
Change	normalised enrichment score
SHARRSLNFGGST [N2H]	1.3
SNARRSLNFGGSP [T13P]	1.61
SNASRSLNFGGST [R4S]	-0.12
SFARRSLNFGGST [N2F]	2.28
SNARRSLNFCGST [G10C]	0.611
SNARRSLNFGGSQ [T13Q]	1.47
SSARRSLNFGGST [N2S]	1.7
SNARRSLNFGGPT [S12P]	2.21
SNARRSLNFGFST [G11F]	1.05
SNARRSLNFGEST [G11E]	1.24
SNARRSLIFGGST [N8I]	1.26
SNARRSLNFGGSK [T13K]	1.44
SNARRSLNFGGSF [T13F]	1.21
SNARRHLNFGGST [S6H]	0.988
SNARRSWNFGGST [L7W]	0.063
SNAARSLNFGGST [R4A]	0.261
SNIRRSLNFGGST [A3I]	0.937
SNARRSLNFGWST [G11W]	0.71
